Assay results of several laboratories.
Compare with care: the assays were run in different laboratories. ± marks the error that the study gave.

For `CCCC[C@H](NC(=O)CNC(=O)CNC(=O)c1ccc(NN)nc1)C(=O)N[C@H]1CC(=O)NCCCC[C@@H](C(N)=O)NC(=O)[C@H](Cc2c[nH]c3ccccc23)NC(=O)[C@H](CCCNC(=N)N)NC(=O)[C@@H](Cc2ccccc2)NC(=O)[C@H](Cc2c[nH]cn2)NC1=O` [technetium-99m labelled], the uptake was 73.1 ± 2.72 %ID (C57 mouse, B16/F1 melanoma, urine; intravenous, 0.5 h).
Under “tumour to tissue ratio”, `N=C(N)NCCC[C@@H]1NC(=O)[C@H](CCCCNC(=O)CNC(=O)CNC(=O)CNC(=O)CC[C@H](NC(=O)c2ccc(NN=Cc3ccccc3S(=O)(=O)O)nc2)C(=O)NCC(=O)NCC(=O)NCC(=O)NCCCC[C@@H]2NC(=O)[C@@H](Cc3ccccc3)NC(=O)[C@H](CC(=O)O)NC(=O)CNC(=O)[C@H](CCCNC(=N)N)NC2=O)NC(=O)[C@@H](Cc2ccccc2)NC(=O)[C@H](CC(=O)O)NC(=O)CNC1=O` [technetium-99m labelled] is recorded as 3.09 ± 0.76 (athymic nu/nu mouse, female, MDA-MB-435 xenograft; intravenous, 120 min; reference: tumour over liver).
`CSCC[C@H](NC(=O)[C@H](CC(C)C)NC(=O)[C@H](Cc1c[nH]cn1)NC(=O)CNC(=O)[C@@H](NC(=O)[C@H](C)NC(=O)[C@H](Cc1c[nH]c2ccccc12)NC(=O)[C@H](CCC(N)=O)NC(=O)CCCCCNC(=O)CNC(=O)CNC(=O)CNC(=O)CSC(C)=O)C(C)C)C(N)=O` [technetium-99m labelled] has a tissue uptake of 0.11 ± 0.03 %ID/g (Swiss mouse, muscle; intravenous, 18.5 MBq, 30 min).
For `CC(C)C[C@H](NC(=O)[C@@H]1CCCN1C(=O)[C@H](CCCCN)NC(=O)[C@@H](N)CO)C(=O)N1CCC[C@H]1C(=O)N[C@@H](CCC(=O)O)C(=O)N[C@H](C(=O)N[C@H](C(=O)N[C@@H](CC(=O)O)C(=O)N[C@@H](CCC(=O)O)C(=O)N[C@@H](Cc1ccc(O)cc1)C(=O)N[C@@H](Cc1cn(CCOCCOCCOCCNC(=O)CCc2ccc(O)c(CN(CCN(CC(=O)O)Cc3cc(CCC(=O)NCCCC[C@H](NC(=O)N[C@@H](CCC(=O)O)C(=O)O)C(=O)O)ccc3O)CC(=O)O)c2)nn1)C(=O)O)[C@@H](C)O)C(C)C` [gallium-68 labelled], “standardised uptake value” read 0.28 g/g (NMRI nu/nu mouse, LNCaP tumour, white adipose tissue; 10 MBq, high molar activity).
`N=C(N)NCCC[C@@H]1NC(=O)[C@H](CCCCNC(=O)CNC(=O)CNC(=O)CNC(=O)CC[C@H](NC(=O)CCOCCOCCOCCOCCNC(=O)CC[C@H](NC(=O)CN2CCN(CC(=O)O)CCN(CC(=O)O)CCN(CC(=O)O)CC2)C(=O)NCCOCCOCCOCCOCCC(=O)N[C@@H](CCC(=O)NCC(=O)NCC(=O)NCC(=O)NCCCC[C@@H]2NC(=O)[C@@H](Cc3ccccc3)NC(=O)[C@H](CC(=O)O)NC(=O)CNC(=O)[C@H](CCCNC(=N)N)NC2=O)C(=O)NCC(=O)NCC(=O)NCC(=O)NCCCC[C@@H]2NC(=O)[C@@H](Cc3ccccc3)NC(=O)[C@H](CC(=O)O)NC(=O)CNC(=O)[C@H](CCCNC(=N)N)NC2=O)C(=O)NCC(=O)NCC(=O)NCC(=O)NCCCC[C@@H]2NC(=O)[C@@H](Cc3ccccc3)NC(=O)[C@H](CC(=O)O)NC(=O)CNC(=O)[C@H](CCCNC(=N)N)NC2=O)NC(=O)[C@@H](Cc2ccccc2)NC(=O)[C@H](CC(=O)O)NC(=O)CNC1=O` [indium-111 labelled]: “tumour to tissue ratio” 8.73 ± 1.7 (athymic nude mice, female, U-87 MG glioma xenograft, tumour and lungs; intravenous, 72 h; reference: tumour over lungs).
For `CCCC[C@H](NC(=O)CNC(=O)CNC(=O)CNC(=O)c1ccc(NN)nc1)C(=O)N[C@H]1CC(=O)NCCCC[C@@H](C(N)=O)NC(=O)[C@H](Cc2c[nH]c3ccccc23)NC(=O)[C@H](CCCNC(=N)N)NC(=O)[C@@H](Cc2ccccc2)NC(=O)[C@H](Cc2c[nH]cn2)NC1=O` [technetium-99m labelled], the uptake was 0.18 ± 0.12 %ID/g (C57 mouse, B16/F1 melanoma, lung; intravenous, 2 h).
Under “tumour to tissue ratio”, `N=C(N)NCCC[C@@H]1NC(=O)[C@H](CCCCNC(=O)CC[C@H](NC(=O)CCOCCOCCOCCOCCNC(=O)CN2CCN(CC(=O)O)CCN(CC(=O)O)CCN(CC(=O)O)CC2)C(=O)NCCCC[C@@H]2NC(=O)[C@@H](Cc3ccccc3)NC(=O)[C@H](CC(=O)O)NC(=O)CNC(=O)[C@H](CCCNC(=N)N)NC2=O)NC(=O)[C@@H](Cc2ccccc2)NC(=O)[C@H](CC(=O)O)NC(=O)CNC1=O` [indium-111 labelled] is recorded as 0.96 ± 0.18 (athymic nude mice, female, U-87 MG glioma xenograft, tumour and kidney; intravenous, 0.5 h; reference: tumour over kidney).
The tumour uptake of `N=C(N)NCCC[C@@H]1NC(=O)[C@H](CCCCNC(=O)c2ccc(CNC34CNCCNCC(NCc5ccc(C(=O)NCCCC[C@@H]6NC(=O)[C@@H](Cc7ccc(O)cc7)NC(=O)[C@H](CC(=O)O)NC(=O)CNC(=O)[C@H](CCCNC(=N)N)NC6=O)cc5)(CNCCNC3)CNCCNC4)cc2)NC(=O)[C@@H](Cc2ccc(O)cc2)NC(=O)[C@H](CC(=O)O)NC(=O)CNC1=O` [copper-64 labelled] is reported as 0.69 ± 0.12 %ID/g (microPET; female athymic nude mouse, U-87 MG xenograft, U-87 MG tumour; intravenous, 1 h, added: c(RGDyK) 10 mg/kg blocking).
Under “tumour to tissue ratio”, `N=C(N)NCCC[C@@H]1NC(=O)[C@H](CCCCNC(=O)CCOCCOCCOCCOCCNC(=O)CN2CCN(CC(=O)O)CCN(CC(=O)O)CCN(CC(=O)O)CC2)NC(=O)[C@@H](Cc2ccccc2)NC(=O)[C@H](CC(=O)O)NC(=O)CNC1=O` [indium-111 labelled] is recorded as 23.7 ± 1.84 (athymic nude mice, female, U-87 MG glioma xenograft, tumour and blood; intravenous, 24 h; reference: tumour over blood).
With `N=C(N)NCCC[C@@H]1NC(=O)[C@H](CCCCNC(=O)CCc2cn(CCC[C@@H]3O[C@H](COC(=O)NCCNC(=O)CN4CCN(CC(=O)O)CCN(CC(=O)O)CCN(CC(=O)O)CC4)[C@@H](O)[C@H](O)[C@H]3O)nn2)NC(=O)[C@@H](Cc2ccccc2)NC(=O)[C@H](CC(=O)O)NC(=O)CNC1=O` [gallium-68 labelled] the SUVmean was 0.1 ± 0.01 SUV (PET; female NMRI nu/nu mice, U-87 MG xenograft, contralateral non-target area; intravenous, 10 MBq, hour 2 of recording).
With `CCCC[C@H](NC(=O)CCCCCCCNC(=O)c1ccc(NN)nc1)C(=O)N[C@H]1CC(=O)NCCCC[C@@H](C(N)=O)NC(=O)[C@H](Cc2c[nH]c3ccccc23)NC(=O)[C@H](CCCNC(=N)N)NC(=O)[C@@H](Cc2ccccc2)NC(=O)[C@H](Cc2c[nH]cn2)NC1=O` [technetium-99m labelled] the uptake was 0.06 ± 0.03 %ID/g (C57 mouse, B16/F1 melanoma, pancreas; intravenous, 24 h).
`N=C(N)NCCC[C@@H]1NC(=O)[C@H](CCCCNC(=O)CC[C@H](NC(=O)CCOCCOCCOCCOCCNC(=O)CC[C@H](NC(=O)CN2CCN(CC(=O)O)CCN(CC(=O)O)CCN(CC(=O)O)CC2)C(=O)NCCOCCOCCOCCOCCC(=O)N[C@@H](CCC(=O)NCCCC[C@@H]2NC(=O)[C@@H](Cc3ccccc3)NC(=O)[C@H](CC(=O)O)NC(=O)CNC(=O)[C@H](CCCNC(=N)N)NC2=O)C(=O)NCCCC[C@@H]2NC(=O)[C@@H](Cc3ccccc3)NC(=O)[C@H](CC(=O)O)NC(=O)CNC(=O)[C@H](CCCNC(=N)N)NC2=O)C(=O)NCCCC[C@@H]2NC(=O)[C@@H](Cc3ccccc3)NC(=O)[C@H](CC(=O)O)NC(=O)CNC(=O)[C@H](CCCNC(=N)N)NC2=O)NC(=O)[C@@H](Cc2ccccc2)NC(=O)[C@H](CC(=O)O)NC(=O)CNC1=O` [indium-111 labelled] has a tissue uptake of 1.98 ± 0.97 %ID/g (athymic nude mice, female, U-87 MG glioma xenograft, spleen; intravenous, 3 µCi, 4 h).

A few entries again:
For `CCCC[C@H](NC(=O)CNC(=O)CNC(=O)CNC(=O)c1ccc(NN)nc1)C(=O)N[C@H]1CC(=O)NCCCC[C@@H](C(N)=O)NC(=O)[C@H](Cc2c[nH]c3ccccc23)NC(=O)[C@H](CCCNC(=N)N)NC(=O)[C@@H](Cc2ccccc2)NC(=O)[C@H](Cc2c[nH]cn2)NC1=O` [technetium-99m labelled], the uptake was 0.18 ± 0.12 %ID/g (C57 mouse, B16/F1 melanoma, lung; intravenous, 2 h).
For `CCCC[C@H](NC(=O)CNC(=O)CNC(=O)c1ccc(NN)nc1)C(=O)N[C@H]1CC(=O)NCCCC[C@@H](C(N)=O)NC(=O)[C@H](Cc2c[nH]c3ccccc23)NC(=O)[C@H](CCCNC(=N)N)NC(=O)[C@@H](Cc2ccccc2)NC(=O)[C@H](Cc2c[nH]cn2)NC1=O` [technetium-99m labelled], the uptake was 73.1 ± 2.72 %ID (C57 mouse, B16/F1 melanoma, urine; intravenous, 0.5 h).
